Results gathered from unrelated publications.
Protocols differ between the studies behind these lines. ± gives the spread as reported.
gag-pol integrase: Gag-Pol polyprotein, integrase (gag-pol, Human immunodeficiency virus type 1 group M subtype B, UniProt P04585)
F fusion protein: Fusion glycoprotein F0, fusion protein (F, Parainfluenza virus 5, UniProt P04849)
Chain of UniProt P32300 (whole entry, looked up): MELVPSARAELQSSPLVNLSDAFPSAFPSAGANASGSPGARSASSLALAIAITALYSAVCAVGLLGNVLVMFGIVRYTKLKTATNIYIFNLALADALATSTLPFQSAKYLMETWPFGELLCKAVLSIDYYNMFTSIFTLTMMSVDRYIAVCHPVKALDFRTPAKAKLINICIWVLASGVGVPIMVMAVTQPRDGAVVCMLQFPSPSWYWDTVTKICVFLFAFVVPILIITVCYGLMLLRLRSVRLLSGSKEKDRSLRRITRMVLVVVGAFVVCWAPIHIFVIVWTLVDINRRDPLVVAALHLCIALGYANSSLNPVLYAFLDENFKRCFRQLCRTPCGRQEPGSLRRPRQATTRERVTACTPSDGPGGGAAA
Chain of UniProt O95180 (whole entry, looked up): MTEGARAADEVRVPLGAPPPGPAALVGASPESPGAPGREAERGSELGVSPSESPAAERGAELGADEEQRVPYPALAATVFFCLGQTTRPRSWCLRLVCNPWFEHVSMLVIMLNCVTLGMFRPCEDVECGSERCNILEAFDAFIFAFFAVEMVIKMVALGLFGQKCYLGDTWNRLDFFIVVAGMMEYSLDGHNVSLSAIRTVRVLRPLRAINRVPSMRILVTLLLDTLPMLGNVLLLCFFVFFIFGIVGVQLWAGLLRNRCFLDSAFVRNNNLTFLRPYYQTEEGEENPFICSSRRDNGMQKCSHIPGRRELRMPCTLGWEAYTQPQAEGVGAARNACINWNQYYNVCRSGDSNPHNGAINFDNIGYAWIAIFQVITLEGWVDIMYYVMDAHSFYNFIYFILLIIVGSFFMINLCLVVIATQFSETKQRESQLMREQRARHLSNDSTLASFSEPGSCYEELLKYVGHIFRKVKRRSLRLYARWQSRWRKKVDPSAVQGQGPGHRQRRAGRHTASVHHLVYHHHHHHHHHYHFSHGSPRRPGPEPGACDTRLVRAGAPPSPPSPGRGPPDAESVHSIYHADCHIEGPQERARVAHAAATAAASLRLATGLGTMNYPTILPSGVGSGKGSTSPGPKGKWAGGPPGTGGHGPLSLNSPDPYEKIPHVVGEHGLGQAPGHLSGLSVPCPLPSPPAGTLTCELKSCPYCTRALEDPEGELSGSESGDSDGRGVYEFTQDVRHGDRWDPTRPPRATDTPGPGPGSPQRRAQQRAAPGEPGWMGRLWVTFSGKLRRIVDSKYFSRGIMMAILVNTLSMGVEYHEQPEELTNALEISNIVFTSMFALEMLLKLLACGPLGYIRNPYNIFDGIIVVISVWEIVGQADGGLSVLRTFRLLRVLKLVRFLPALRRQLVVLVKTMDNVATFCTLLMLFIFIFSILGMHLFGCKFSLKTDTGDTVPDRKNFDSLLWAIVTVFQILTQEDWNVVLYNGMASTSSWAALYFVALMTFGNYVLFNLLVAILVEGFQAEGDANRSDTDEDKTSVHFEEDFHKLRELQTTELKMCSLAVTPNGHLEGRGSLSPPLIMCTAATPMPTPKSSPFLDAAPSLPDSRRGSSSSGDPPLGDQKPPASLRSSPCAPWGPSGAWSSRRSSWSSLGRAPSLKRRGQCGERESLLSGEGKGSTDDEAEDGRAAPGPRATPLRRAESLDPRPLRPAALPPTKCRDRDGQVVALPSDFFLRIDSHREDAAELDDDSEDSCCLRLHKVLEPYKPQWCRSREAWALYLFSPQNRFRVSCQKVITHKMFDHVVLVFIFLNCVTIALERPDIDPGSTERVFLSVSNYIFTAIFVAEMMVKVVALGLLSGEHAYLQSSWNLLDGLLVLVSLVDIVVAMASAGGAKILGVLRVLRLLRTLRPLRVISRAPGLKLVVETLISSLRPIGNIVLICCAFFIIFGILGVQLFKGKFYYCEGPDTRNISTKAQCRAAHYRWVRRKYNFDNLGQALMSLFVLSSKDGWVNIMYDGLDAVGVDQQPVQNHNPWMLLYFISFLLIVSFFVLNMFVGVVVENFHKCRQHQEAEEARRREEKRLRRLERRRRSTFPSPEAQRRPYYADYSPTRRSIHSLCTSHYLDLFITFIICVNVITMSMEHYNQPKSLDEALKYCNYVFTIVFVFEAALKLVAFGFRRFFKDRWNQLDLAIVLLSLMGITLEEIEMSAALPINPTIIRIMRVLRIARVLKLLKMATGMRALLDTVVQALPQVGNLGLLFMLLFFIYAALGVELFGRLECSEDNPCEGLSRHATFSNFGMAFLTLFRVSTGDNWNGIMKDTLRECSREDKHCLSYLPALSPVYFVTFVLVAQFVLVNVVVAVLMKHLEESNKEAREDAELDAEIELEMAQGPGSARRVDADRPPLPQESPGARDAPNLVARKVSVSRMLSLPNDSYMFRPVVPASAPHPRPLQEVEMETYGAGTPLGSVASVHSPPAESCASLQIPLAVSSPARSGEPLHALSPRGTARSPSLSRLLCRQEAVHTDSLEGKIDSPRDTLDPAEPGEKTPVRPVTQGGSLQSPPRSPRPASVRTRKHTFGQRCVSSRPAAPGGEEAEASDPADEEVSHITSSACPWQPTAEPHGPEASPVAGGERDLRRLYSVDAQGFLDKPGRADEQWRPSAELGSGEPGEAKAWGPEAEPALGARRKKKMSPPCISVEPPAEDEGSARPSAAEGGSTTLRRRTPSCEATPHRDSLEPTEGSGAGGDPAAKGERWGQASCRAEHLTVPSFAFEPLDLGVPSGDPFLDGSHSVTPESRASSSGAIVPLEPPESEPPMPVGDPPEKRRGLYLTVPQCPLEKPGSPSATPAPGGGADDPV

For CC[C@H](C)[C@H](N)C(=O)N[C@@H](CC(N)=O)C(=O)N[C@@H](CC(N)=O)C(=O)N[C@H](C(=O)N1C[C@@H](n2cc([C]34[CH]5[CH]6[CH]7[CH]3[Fe]6754389%10[CH]4[CH]3[CH]8[CH]9[CH]4%10)nn2)C[C@H]1C(=O)N[C@@H](Cc1ccc(O)cc1)C(N)=O)[C@@H](C)CC (stereo partly shown), the IC50 was 4.1 ± 0.3 µM (Envelope glycoprotein gp160, gp120 (env, Human immunodeficiency virus type 1 group M subtype B, UniProt P35961, F206A); binding to soluble CD4, inhibitor, competition SPR; gp120 F210A mutant).
O=C(COc1ccc2c(c1O)C(=O)c1ccccc1C2=O)c1ccccc1 has an IC50 of 35 ± 4 µM (Gag-Pol polyprotein, RT DNA polymerase activity (gag-pol, Human immunodeficiency virus 1, UniProt P03366, K702N); enzyme activity, inhibitor).
CC(C)C[C@@H]1NC(=O)[C@H](Cc2c[nH]c3ccccc23)NC(=O)[C@H](Cc2ccc(O)cc2)NC(=O)[C@H](CCCNC(=N)N)NC(=O)[C@@H](NC(=O)[C@@H](N)CCC(=O)O)CSSC[C@@H]2NC(=O)[C@@H]3CSSC[C@@H](C(=O)N[C@H](C(=O)N[C@@H](Cc4c[nH]c5ccccc45)C(=O)N[C@@H](CC(=O)O)C(=O)NCC(=O)N[C@H](C(=O)N[C@@H](Cc4ccccc4)C(=O)N[C@@H](CO)C(=O)O)[C@@H](C)O)C(C)C)NC(=O)[C@H](Cc4c[nH]c5ccccc45)NC(=O)CNC(=O)[C@H](Cc4c[nH]cn4)NC(=O)[C@H](CCCNC(=N)N)NC(=O)[C@H](CCCNC(=N)N)NC(=O)[C@H](CO)NC(=O)[C@H](CSSC[C@H](NC(=O)CNC(=O)CNC1=O)C(=O)N[C@@H](CO)C(=O)N[C@@H](C)C(=O)NCC(=O)N[C@@H](CCC(N)=O)C(=O)N[C@@H]([C@@H](C)O)C(=O)N3)NC(=O)[C@H](C(C)C)NC(=O)[C@H](CC(C)C)NC(=O)[C@H](Cc1c[nH]cn1)NC(=O)[C@H](CCCCN)NC2=O gave an IC50 of 1.4 µM (CACNA1H (Homo sapiens, UniProt O95180); calcium signal, antagonist, fluorescence).
With C=CCCC[C@H](NC(=O)[C@H](CCCNC(=N)N)NC(=O)[C@@H](NC(=O)[C@@H](NC(=O)[C@H](CCCC=C)NC(=O)[C@H](CCC(=O)O)NC(C)=O)[C@@H](C)CC)[C@@H](C)CC)C(=O)N[C@@H](CC(C)C)C(=O)N[C@@H](CCC(N)=O)C(=O)N[C@@H](CCC(N)=O)C(=O)N[C@@H](CC(C)C)C(=O)N[C@@H](CC(C)C)C(=O)N[C@@H](Cc1ccccc1)C(=O)N[C@H](C(=O)N[C@@H](Cc1c[nH]cn1)C(=O)N[C@@H](Cc1ccccc1)C(=O)N[C@@H](CCCNC(=N)N)C(=O)N[C@H](C(=O)NCC(N)=O)[C@@H](C)CC)[C@@H](C)CC the IC50 was 5.2 ± 0.5 µM (gag-pol integrase; 3′-end processing, inhibitor; HIV-1).
CC[C@H](C)[C@H](NC(=O)[C@H](C)NC(=O)[C@H](CO)NC(=O)[C@H](CC(C)C)NC(=O)[C@H](Cc1ccc(O)cc1)NC(=O)[C@@H](NC(=O)[C@H](CC(=O)O)NC(=O)[C@H](CO)NC(=O)[C@H](CCC(N)=O)NC(=O)[C@H](C)NC(=O)[C@H](CC(C)C)NC(=O)[C@H](Cc1c[nH]cn1)NC(=O)[C@H](CCC(N)=O)NC(=O)[C@H](CC(C)C)NC(=O)[C@H](C)NC(=O)[C@H](CC(=O)O)NC(=O)[C@H](CO)NC(=O)[C@H](CC(C)C)NC(=O)[C@H](CO)NC(=O)[C@H](CCCCN)NC(=O)[C@H](CC(N)=O)NC(=O)[C@@H](NC(=O)[C@H](C)NC(=O)[C@H](C)NC(=O)[C@H](CC(C)C)NC(=O)[C@H](CC(N)=O)NC(=O)[C@H](CCC(N)=O)NC(=O)[C@H](CO)NC(=O)[C@@H](NC(=O)[C@H](CC(=O)O)NC(=O)[C@@H](NC(=O)[C@@H]1CCCN1C(=O)[C@H](CC(=O)O)NC(=O)[C@@H](NC(=O)[C@H](CO)NC(=O)[C@H](CC(C)C)NC(=O)[C@@H](NC(=O)[C@H](CCC(N)=O)NC(=O)[C@H](CO)NC(=O)[C@H](CO)NC(=O)[C@H](CCC(=O)O)NC(=O)[C@H](CC(C)C)NC(=O)[C@@H](N)CCCCN)[C@@H](C)CC)[C@@H](C)CC)[C@@H](C)CC)[C@@H](C)CC)C(C)C)[C@@H](C)O)C(=O)O has an IC50 of 0.05 ± 0.007 µM (F fusion protein; cell-cell fusion, inhibitor, luciferase reporter; Vero plus BSR-T7 cells; 6 h, 37 °C, added: SV5 F and HN).
With CN(C)S(=O)(=O)c1cc(O)c(O)c2c1CN(Cc1ccc(F)c(Cl)c1)C2=O the IC50 was 0.2 ± 0.02 µM (Gag-Pol polyprotein, integrase (gag-pol, Human immunodeficiency virus 1, UniProt P12497, Y1290R); enzyme activity, inhibitor).
The IC50 of CC(=O)NCCCC[C@@H](NC(=O)[C@@H](N)Cc1ccc(O)cc1)C(=O)N[C@@H](Cc1ccccc1)C(=O)NCC(=O)N[C@@H](Cc1ccc(O)cc1)C(=O)N1CCC[C@H]1C(=O)N[C@@H](CO)C(N)=O is reported as 0.436 ± 0.034 µM (Oprd1 (Mus musculus, UniProt P32300); radioligand binding; CHO cells; added: 0.15 nM [3H]DPDPE).
With CC[C@H](C)[C@H](NC(=O)[C@H](C)NC(=O)[C@H](CO)NC(=O)[C@H](CC(C)C)NC(=O)[C@H](Cc1ccc(O)cc1)NC(=O)[C@@H](NC(=O)[C@H](CC(=O)O)NC(=O)[C@H](CO)NC(=O)[C@H](CCC(N)=O)NC(=O)[C@H](C)NC(=O)[C@H](CC(C)C)NC(=O)[C@H](Cc1c[nH]cn1)NC(=O)[C@H](CCC(N)=O)NC(=O)[C@H](CC(C)C)NC(=O)[C@H](C)NC(=O)[C@H](CC(=O)O)NC(=O)[C@H](CO)NC(=O)[C@H](CC(C)C)NC(=O)[C@H](CO)NC(=O)[C@H](CCCCN)NC(=O)[C@H](CC(N)=O)NC(=O)[C@@H](NC(=O)[C@H](C)NC(=O)[C@H](C)NC(=O)[C@H](CC(C)C)NC(=O)[C@H](CC(N)=O)NC(=O)[C@H](CCC(N)=O)NC(=O)[C@H](CO)NC(=O)CNC(=O)[C@H](CC(=O)O)NC(=O)[C@H](CC(C)C)NC(=O)[C@@H]1CCCN1C(=O)[C@H](CC(=O)O)NC(=O)[C@@H](NC(=O)[C@H](CO)NC(=O)[C@H](CC(C)C)NC(=O)[C@@H](NC(=O)[C@H](CCC(N)=O)NC(=O)[C@H](CO)NC(=O)[C@H](CO)NC(=O)[C@H](CCC(=O)O)NC(=O)[C@H](CC(C)C)NC(=O)[C@@H](N)CCCCN)[C@@H](C)CC)[C@@H](C)CC)C(C)C)[C@@H](C)O)C(=O)O the IC50 was 0.271 ± 0.024 µM (F fusion protein; cell-cell fusion, inhibitor, luciferase reporter; Vero plus BSR-T7 cells; 6 h, 37 °C, added: SV5 F and HN).
CC(C)C[C@H](NC(=O)[C@H](Cc1ccccc1)NC(=O)[C@H](Cc1ccc(O)cc1)NC(=O)[C@H](C)NC(=O)[C@@H](N)[C@@H](C)O)C(=O)N[C@@H](CC(C)C)C(=O)N[C@@]1(C)CCCC=CCCC[C@@](C)(C(=O)N[C@@H](Cc2c[nH]c3ccccc23)C(N)=O)NC(=O)CNC(=O)[C@H](C)NC(=O)[C@H](CC(C)C)NC1=O gave an IC50 of greater than 100 µM (gag-pol integrase; integrase strand transfer, inhibitor).
CC[C@H](C)[C@@H]1NC(=O)[C@H](C)NC(=O)[C@@H](NC(C)=O)CCCC=CCCC[C@@H](C(=O)N[C@H](C(=O)N[C@@H](CC(C)C)C(=O)N[C@@H](CCC(N)=O)C(=O)N[C@@H](CCC(N)=O)C(=O)N[C@@H](CC(C)C)C(=O)N[C@@H](CC(C)C)C(=O)N[C@@H](Cc2ccccc2)C(=O)N[C@H](C(=O)N[C@@H](Cc2c[nH]cn2)C(=O)N[C@@H](Cc2ccccc2)C(=O)N[C@@H](CCCNC(=N)N)C(=O)N[C@H](C(=O)NCC(N)=O)[C@@H](C)CC)[C@@H](C)CC)[C@@H](C)CC)NC(=O)[C@H]([C@@H](C)CC)NC1=O gave an IC50 of 3.8 ± 0.7 µM (gag-pol integrase; strand transfer, inhibitor; HIV-1).

Excerpt of the above:
CC[C@H](C)[C@@H]1NC(=O)[C@H](C)NC(=O)[C@@H](NC(C)=O)CCCC=CCCC[C@@H](C(=O)N[C@H](C(=O)N[C@@H](CC(C)C)C(=O)N[C@@H](CCC(N)=O)C(=O)N[C@@H](CCC(N)=O)C(=O)N[C@@H](CC(C)C)C(=O)N[C@@H](CC(C)C)C(=O)N[C@@H](Cc2ccccc2)C(=O)N[C@H](C(=O)N[C@@H](Cc2c[nH]cn2)C(=O)N[C@@H](Cc2ccccc2)C(=O)N[C@@H](CCCNC(=N)N)C(=O)N[C@H](C(=O)NCC(N)=O)[C@@H](C)CC)[C@@H](C)CC)[C@@H](C)CC)NC(=O)[C@H]([C@@H](C)CC)NC1=O gave an IC50 of 3.8 ± 0.7 µM (gag-pol integrase; strand transfer, inhibitor; HIV-1).
